# Experimental data of several laboratories.
# Protocols differ between the studies behind these lines. Numbers after ± are the reported error.
Structure (SMILES),system,setting,Cmax
CN1CC(=O)N2[C@H](c3ccc4c(c3)OCO4)c3[nH]c4ccccc4c3C[C@@H]2C1=O,"healthy adults, plasma","oral, 40 mg, fasted, free combination, added: macitentan 10 mg",610 ng/mL
CNC(=O)c1ccc(-c2cnn3ccc(C(=O)N(C)c4ccc(Cl)c(C(=O)OC)c4)cc23)cc1,"neonatal calf, infected, with diarrhoea, plasma","oral, 10 mg/kg, day 1",21 nM
C[C@H]1O[C@@H](O[C@H]2[C@@H](O)C[C@H](O[C@H]3[C@@H](O)C[C@H](O[C@H]4CC[C@@]5(C)[C@H](CC[C@@H]6[C@@H]5C[C@@H](O)[C@]5(C)[C@@H](C7=CC(=O)OC7)CC[C@]65O)C4)O[C@@H]3C)O[C@@H]2C)C[C@H](O)[C@@H]1O,"healthy volunteers, plasma","oral, dose not given, given alone",1.34 ng/mL
Cc1cc(=O)[nH]c2c1NC(=O)c1cccnc1N2C1CC1,"olive baboon (Papio anubis), non-pregnant, serum","oral, 400 mg nevirapine, tablet",2.27 ± 0.23 ng/mL
CC[C@H](C)[C@H](NC(=O)[C@@H](N)CCCNC(=N)N)C(=O)N[C@H](C(=O)N1CCC[C@H]1C(=O)N[C@@H](C)C(N)=O)C(C)C,"healthy volunteers, both sexes, plasma","intravenous infusion, 3.0 mg/kg daily, day 7, multiple ascending dose",13400 ± 4430 ng/mL
Cc1cc(C(C#N)c2ccc(Cl)cc2)c(Cl)cc1NC(=O)c1cc(I)cc(I)c1O (centres unmarked),"parasitized Corriedale lambs, plasma","subcutaneous, 5 mg/kg, added: moxidectin 0.2 mg/kg subcutaneous",114000 ± 22100 ng/mL
Cc1ncc2n1-c1ccc(Cl)cc1C(c1ccccc1F)=NC2,"healthy volunteers, plasma","oral, 8 mg, CYP3A probe, before Echinacea, geometric mean",50 ng/mL
CCCCCOc1ccc(-c2ccc(-c3ccc(C(=O)N[C@H]4C[C@@H](O)[C@@H](O)NC(=O)[C@@H]5[C@@H](O)[C@@H](C)CN5C(=O)[C@H]([C@@H](C)O)NC(=O)[C@H]([C@H](O)[C@@H](O)c5ccc(O)cc5)NC(=O)[C@@H]5C[C@@H](O)CN5C(=O)[C@H]([C@@H](C)O)NC4=O)cc3)cc2)cc1,"human, plasma","intravenous, 3 mg/kg loading",7700 ng/mL
Cc1ncc2n1-c1ccc(Cl)cc1C(c1ccccc1F)=NC2,"healthy volunteers, plasma","oral, 7.5 mg single dose, day 1, arithmetic mean, alone",39.5 ng/mL
CN(C)CCC[C@@]1(c2ccc(F)cc2)OCc2cc(C#N)ccc21,"healthy volunteers, plasma","oral, dose not given, given alone",9.19 ng/mL
O=c1[nH]c(Cc2ccccn2)nc2c1cnn2C1CCOCC1,"healthy men, extensive metabolizers, plasma","oral, 5 mg single dose, tablet, geometric mean",55.9 nM
O=C1c2c(c3c4ccc(O)cc4n([C@@H]4O[C@H](CO)[C@@H](O)[C@H](O)[C@H]4O)c3c3[nH]c4cc(O)ccc4c23)C(=O)N1NC(CO)CO,"cancer patients, plasma","intravenous infusion, 6 mg/m2, 1 h infusion, cycle 1, added: 5-FU/leucovorin",79 ± 17.6 ng/mL
CCCCCOc1ccc(-c2cc(-c3ccc(C(=O)N[C@H]4C[C@@H](O)[C@@H](O)NC(=O)[C@@H]5[C@@H](O)[C@@H](C)CN5C(=O)[C@H]([C@H](O)CC(N)=O)NC(=O)[C@H]([C@H](O)[C@@H](O)c5ccc(O)c(OS(=O)(=O)O)c5)NC(=O)[C@@H]5C[C@@H](O)CN5C(=O)[C@H]([C@@H](C)O)NC4=O)cc3)no2)cc1,"young infants under 1000 g, plasma","intravenous infusion, 10 mg/kg/day, day 4, median, 1 h infusion, repeat dosing",24900 ng/mL
C=CCNC1=C2C[C@@H](C)C[C@H](OC)[C@H](O)[C@@H](C)/C=C(\C)[C@H](OC(N)=O)[C@@H](OC)/C=C\C=C(/C)C(=O)NC(=CC1=O)C2=O,"patients, plasma","intravenous, 200 mg/m2, cycle 1 day 4, added: bortezomib 0.7 mg/m2",2780 ± 656 ng/mL
CC(C)c1nc(N(C)S(C)(=O)=O)nc(-c2ccc(F)cc2)c1/C=C/[C@@H](O)C[C@@H](O)CC(=O)O,"healthy volunteers, plasma","oral, dose not given, added: 2D regimen",6.09 ng/mL
C[C@@H](Oc1cc(-c2cnn(C3CCNCC3)c2)cnc1N)c1c(Cl)ccc(F)c1Cl,patients,"215 mg/m^2, day 1, with dasatinib, median",279 ng/mL
CC[C@H](C)C(=O)O[C@H]1C[C@H](O)C=C2C=C[C@H](C)[C@H](CC[C@@H](O)C[C@@H](O)CC(=O)O)[C@H]21,"healthy volunteers, plasma","oral, dose not given, added: 2D regimen",26.3 ng/mL
CCCCCOc1ccc(-c2cc(-c3ccc(C(=O)N[C@H]4C[C@@H](O)[C@@H](O)NC(=O)[C@@H]5[C@@H](O)[C@@H](C)CN5C(=O)[C@H]([C@H](O)CC(N)=O)NC(=O)[C@H]([C@H](O)[C@@H](O)c5ccc(O)c(OS(=O)(=O)O)c5)NC(=O)[C@@H]5C[C@@H](O)CN5C(=O)[C@H]([C@@H](C)O)NC4=O)cc3)no2)cc1,"preterm neonates below 1000 g, plasma","intravenous, 15 mg/kg/day, repeated dosing, mean",38600 ng/mL
CNCCC[C@@]1(c2ccc(F)cc2)OCc2cc(C#N)ccc21,"healthy volunteers, plasma","dose not given, given alone",1.51 ng/mL
Cc1ncc2n1-c1ccc(Cl)cc1C(c1ccccc1F)=NC2,"healthy men, plasma","oral, 7.5 mg, day 19, arithmetic mean, added: 7 days post amenamevir",39.7 ng/mL

# A few entries again:
Structure (SMILES),system,setting,Cmax
O=C1c2c(c3c4ccc(O)cc4n([C@@H]4O[C@H](CO)[C@@H](O)[C@H](O)[C@H]4O)c3c3[nH]c4cc(O)ccc4c23)C(=O)N1NC(CO)CO,"cancer patients, plasma","intravenous infusion, 6 mg/m2, 1 h infusion, cycle 1, added: 5-FU/leucovorin",79 ± 17.6 ng/mL
Cc1ncc2n1-c1ccc(Cl)cc1C(c1ccccc1F)=NC2,"healthy volunteers, plasma","oral, 8 mg, CYP3A probe, before Echinacea, geometric mean",50 ng/mL
